Results gathered from unrelated publications.
Numbered parts are unrelated; each lists some results of a single study. Several values in a cell are separate wells, animals, samples, runs or records.
Sequence of UniProt Q14416 (whole entry, looked up): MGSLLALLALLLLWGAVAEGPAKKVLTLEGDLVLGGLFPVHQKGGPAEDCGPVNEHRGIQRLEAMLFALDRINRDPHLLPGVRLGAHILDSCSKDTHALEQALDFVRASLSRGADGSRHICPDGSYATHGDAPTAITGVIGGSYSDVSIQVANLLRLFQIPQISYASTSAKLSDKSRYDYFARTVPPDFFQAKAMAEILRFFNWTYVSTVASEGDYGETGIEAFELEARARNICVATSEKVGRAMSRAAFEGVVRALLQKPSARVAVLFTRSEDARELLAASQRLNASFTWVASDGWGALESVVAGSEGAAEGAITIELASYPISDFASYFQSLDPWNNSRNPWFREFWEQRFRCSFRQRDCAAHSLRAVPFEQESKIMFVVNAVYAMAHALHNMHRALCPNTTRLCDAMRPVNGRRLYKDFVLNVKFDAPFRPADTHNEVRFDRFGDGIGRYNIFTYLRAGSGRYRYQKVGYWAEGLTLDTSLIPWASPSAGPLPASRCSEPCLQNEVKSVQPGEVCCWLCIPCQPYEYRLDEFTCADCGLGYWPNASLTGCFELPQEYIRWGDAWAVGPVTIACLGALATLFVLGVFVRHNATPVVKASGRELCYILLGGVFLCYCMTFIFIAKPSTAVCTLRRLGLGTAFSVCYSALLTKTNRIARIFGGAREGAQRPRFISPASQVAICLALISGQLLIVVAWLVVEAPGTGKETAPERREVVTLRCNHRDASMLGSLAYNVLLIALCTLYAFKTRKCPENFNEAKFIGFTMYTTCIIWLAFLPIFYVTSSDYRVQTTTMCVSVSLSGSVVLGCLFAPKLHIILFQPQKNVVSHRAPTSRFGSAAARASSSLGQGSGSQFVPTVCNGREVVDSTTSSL

Block 1 — read-out: enzyme activity; action: inhibitor; quantity: IC50
Target: Cyclin-dependent kinase 2, with cyclin A (CDK2, Homo sapiens, UniProt P24941)
Cc1cccc(-c2ccc3nc(NC(=O)C4CCCNC4)nn3c2)c1 (centres unmarked): > 100 µM
O=C(Nc1nc2ccccn2n1)C1CCCCC1: > 100 µM
Cn1ccc2c(-c3ccc4nc(NC(=O)C5CCCCC5)nn4c3)cccc21: > 100 µM

Other studies, line by line
TP53 M133L/N239Y/N268D/V203A/Y220C DNA-binding domain: Cellular tumor antigen p53, DNA-binding domain (TP53, Homo sapiens, UniProt P04637, M133L/N239Y/N268D/V203A/Y220C)
CCCCn1ccn2c(-c3ccc(Oc4ccnc(C)c4)c(F)c3)c(C)nc2c1=O
metabolized fraction (human liver microsomes; 5 µM, 15 min): 19%

Cc1nc(Cl)cnc1C#N
delta Tm (TP53 M133L/N239Y/N268D/V203A/Y220C DNA-binding domain; DSF; 1000 µM, 24 h): 2.15 °C

O=C(O)COc1ccc(Br)cc1C=NNC(=O)Cc1ccccc1 (mixture of isomers)
TNF-alpha level reduction (ELISA; mouse, pilocarpine epilepsy model, hippocampus; oral, 20 mg/kg; reference: pilocarpine group): 56.9% and 57%

FC(F)(F)c1c(-c2ccc(N3CCNCC3)c(Cl)c2)ccn2c(CC3CC3)nnc12
EC50 (Metabotropic glutamate receptor 2 (GRM2, Homo sapiens, UniProt Q14416); GTPγS binding, positive allosteric modulator; with: EC20 glutamate): 131 nM

CCOC(=O)c1cc(C#N)c(Cl)nc1Cl
ΔTm (TP53 M133L/N239Y/N268D/V203A/Y220C DNA-binding domain; differential scanning fluorimetry; 250 µM, 24 h): 2.57 °C

Some of these lines once more (other studies, line by line):
CCOC(=O)c1cc(C#N)c(Cl)nc1Cl
ΔTm (TP53 M133L/N239Y/N268D/V203A/Y220C DNA-binding domain; differential scanning fluorimetry; 250 µM, 24 h): 2.57 °C
